Experimental data from different studies.
Every numbered part comes from another study and shows a few of its results, in no order. Positions count from the first letter of the parent shown.

Series 1
Target: RING finger protein unkempt homolog, zinc fingers 1-6, GST-SBP tag (UNK, Homo sapiens, UniProt Q9C0B0, residues 30-357)
Sequence of UniProt Q9C0B0 (30-357, looked up): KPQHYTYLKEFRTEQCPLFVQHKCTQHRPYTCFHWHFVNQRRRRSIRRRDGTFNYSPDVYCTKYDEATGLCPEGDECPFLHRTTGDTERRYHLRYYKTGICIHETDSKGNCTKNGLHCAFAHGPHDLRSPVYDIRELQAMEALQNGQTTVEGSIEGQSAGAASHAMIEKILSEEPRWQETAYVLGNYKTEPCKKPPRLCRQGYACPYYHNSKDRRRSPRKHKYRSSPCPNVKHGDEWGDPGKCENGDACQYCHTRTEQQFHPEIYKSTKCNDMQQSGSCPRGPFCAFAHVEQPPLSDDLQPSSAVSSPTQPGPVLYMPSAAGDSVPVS
Method: RNA Bind-n-Seq
Molecule type: RNA
Sample: in vitro
Tested at: not given
Setting: RNA with constant flanks, human-mouse chimeric sites, ends assumed
Baseline: input RNA pool
Reading: higher = stronger binding
Constant ends, left off below: GGGAGUUCUACAGUCCGACGAUC … CAACAGAGGAUUGAGCAUCA
With `UCCCAAAUCCAGCAGCUAGAAGGAGCCUUGAGACAAACACUCCACACACAGGGAAGGCGAUAACAUUGUACAUUGGUUUACAUUUUUCUCCUUGAAUGAUUUUUCUAUCCUAGUGCUUGC` the bound/input enrichment was 0.554 ratio.
`UAUAAUAAUCAUGAAAUUCGUUCCGGGAAGCACAUUGGUGUCUGCAUCUCAGUUGCCAACAAUAGGCUUUUUGUGGGCUCUAUUCCUAAGAGUAAAACCAAGGAGCAGAUUCUUGAGGAA` has a bound/input enrichment of 0.842 ratio.
`GCAGGAUCUUCUAAAUACCAGUGGGACAUUAUGAAAUCCCUUGGGCUCUCUGAUGACGACAUAGUGAAAUUUUCUGAAGCAGAGCACUGGCUUGAUUAUUUCCCACCACUGGCCGUUCAG` has a bound/input enrichment of 0.261 ratio.
The bound/input enrichment of `AAAAUAGACUAUGGUGAGUACAUGGAUAAAAACAAUGUGAGGCGGCAAGCAACAACAAUCAUAGCUGAUAACAUUAUAUUUCUGAGUGACCAGACAAAAGAAAAGGCAUAGAACGGAUGA` is reported as 3.1 ratio.
With `UUACCCGAAAAUGAAGAUGAGCUGGAGAGCACCAACAGGCGCUACACCAAGAGGGACUGUAGCACUUUCCUCAGAACUAGUGAGACGGGCAUCGUGGACCAGGUCAUGGUCACUCUCAAC` the bound/input enrichment was 0.294 ratio.
The bound/input enrichment of `GGACAUCUGUCAAAUUGUAUUUCCCGUGUGAAACAAGUGAACACUCUGAUACACUUCAUCUGCUUGUACAUCUGUAUGAUAGAGAAAUGUAAAUAUGUUAAUCCAAGCAAUGUGUCACUU` is reported as 0.271 ratio.
`UGGGCACUCUAUCAGAUAUAUUAAUUUUUUAAUGUAGAUGUAAUUUUAAAAAUGAAUGGCUACUUUACACGUUUAACUAGGGUUUUACUAUAUAUGUGUACAUAUGUAUAUGUAUUUAUA` has a bound/input enrichment of 18.8 ratio.
For `CGCUGGCCCAAGCUGAUGUAAAUGUUUGGCCUCCAUCUCUCAGGCACGUGUGCCUUCUCUUAGUUAUUGUUUUCGGGAUGUUAUGAAUCUCAGUACUGUGGUUUGAAAGCACCAGCUUUG`, the bound/input enrichment was 8.79 ratio.

Series 2
Target: MAFK, bZIP domain (human)
Method: DHFR protein complementation
Sample: yeast
Setting: single substitutions, most at no-binding floor
Baseline: wild-type JUN-FOS pair
Reading: higher = stronger binding
Parent: JUN, bZIP domain (human); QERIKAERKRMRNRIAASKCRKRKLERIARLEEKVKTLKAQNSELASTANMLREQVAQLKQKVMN; partner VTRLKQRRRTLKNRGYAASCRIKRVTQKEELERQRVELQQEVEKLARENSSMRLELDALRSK
`A46V` has a binding fitness of -1.46 natural log.
`Q55M` gave a binding fitness of -1.53 natural log.
With `L45D` the binding fitness was -1.47 natural log.
The binding fitness of `N42L` is reported as -1.35 natural log.
With `E54K` the binding fitness was -1.44 natural log.
`M51Q` has a binding fitness of -1.38 natural log.
`E54V` gave a binding fitness of -1.4 natural log.
`T48D` has a binding fitness of -1.56 natural log.
For `R30E`, the binding fitness was -1.52 natural log.
`I28P` gave a binding fitness of -1.5 natural log.
`N42A` has a binding fitness of -1.36 natural log.
With `A49P` the binding fitness was -1.51 natural log.
The binding fitness of `L52P` is reported as -1.48 natural log.
For `Q55P`, the binding fitness was -1.5 natural log.
`T37G` gave a binding fitness of -1.42 natural log.
For `S47N`, the binding fitness was -1.42 natural log.
With `T37D` the binding fitness was -1.52 natural log.
For `L31D`, the binding fitness was -1.53 natural log.
`T37E` gave a binding fitness of -1.36 natural log.
The binding fitness of `N42Q` is reported as -1.39 natural log.
For `N42R`, the binding fitness was -1.13 natural log.
`I28Q` has a binding fitness of -1.5 natural log.

Series 3
Target: Sal-like protein 4, full length isoform B (SALL4, Homo sapiens, UniProt Q9UJQ4-2, residues 1-616)
Method: universal PBM
Molecule type: double-stranded DNA, one strand shown
Sample: in vitro
Tested at: not given
Setting: 8-mer, flanks averaged, mean of replicates
Reading: higher = stronger binding
For `GCGATGTA`, the E-score was 0.0442.
For `CCCCATGA`, the E-score was -0.0975.
For `AGTAGTGA`, the E-score was 0.189.
The E-score of `CGCAGTAC` is reported as -0.202.
`ATCATCGG` gave an E-score of 0.133.
`ATTGCCGA` has an E-score of -0.0285.
For `GACGTGGC`, the E-score was -0.157.
With `GTGAGATA` the E-score was 0.143.
For `CTACAGTC`, the E-score was -0.107.
For `CGTGTGAG`, the E-score was -0.201.
With `GTGGCTCA` the E-score was -0.235.
The E-score of `TAGATCGA` is reported as 0.0863.
The E-score of `GCCAATCA` is reported as -0.0989.
`TATCGCGA` has an E-score of 0.00319.
With `AACGGGCG` the E-score was -0.125.
For `AGCGTAGA`, the E-score was -0.161.
For `AGCTGTTA`, the E-score was 0.0778.
For `TCCCCGAA`, the E-score was -0.172.
For `CGCCTCTC`, the E-score was -0.298.
The E-score of `AGCGCAAC` is reported as -0.0693.
With `CCCTGATC` the E-score was -0.218.
For `GTGGCGTA`, the E-score was -0.0264.
With `GTAGTGAC` the E-score was -0.0587.
`GCTAAACC` gave an E-score of -0.271.
The E-score of `AGTCGTCC` is reported as -0.232.

Series 4
Target: Max-binding protein MNT, bHLH-zipper, MAX partner unstated (MNT, Homo sapiens, UniProt Q99583, residues 220-300)
Method: protein-binding microarray
Molecule type: double-stranded DNA, one strand shown
Sample: in vitro
Tested at: not given
Setting: k-mer, scored over probes, only values ≥0.25
Reading: higher = stronger binding
Residues (chain): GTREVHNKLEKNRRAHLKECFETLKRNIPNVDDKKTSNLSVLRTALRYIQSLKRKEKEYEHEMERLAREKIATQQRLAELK
For `ACGCGCGG`, the E-score was 0.314.
`CACGTGCC` has an E-score of 0.496.
`ATCCCCAC` has an E-score of 0.325.
`GGGCCGCA` has an E-score of 0.253.
`ATGTGCCC` has an E-score of 0.336.
With `CTGCACAC` the E-score was 0.309.
For `GCACCTGC`, the E-score was 0.282.
With `ACAATGTG` the E-score was 0.321.
With `AGAGCGTG` the E-score was 0.351.
With `CCGTCCAC` the E-score was 0.281.
`CACGTGGG` gave an E-score of 0.497.
`CACGTTAA` has an E-score of 0.301.
`CATACACG` gave an E-score of 0.401.
`CGCACGCC` has an E-score of 0.363.
`CATGTGCG` gave an E-score of 0.481.
With `ACGAGGCA` the E-score was 0.313.
With `CCATGTGC` the E-score was 0.485.
For `CCCGACCC`, the E-score was 0.277.
For `GCGTACAC`, the E-score was 0.25.
`CCACGAGG` has an E-score of 0.47.
For `TAACACGA`, the E-score was 0.279.
`CGTGCCTC` has an E-score of 0.325.

Series 5
Target: PABPC1L2, full length, GST fusion (mouse, UniProt A0ABA7IW68)
Method: RNAcompete
Molecule type: RNA
Sample: in vitro
Tested at: 20 nM
Setting: 7-mer, probes averaged, single round
Baseline: mean of 7-mers
Reading: higher = stronger binding
Target sequence (chain): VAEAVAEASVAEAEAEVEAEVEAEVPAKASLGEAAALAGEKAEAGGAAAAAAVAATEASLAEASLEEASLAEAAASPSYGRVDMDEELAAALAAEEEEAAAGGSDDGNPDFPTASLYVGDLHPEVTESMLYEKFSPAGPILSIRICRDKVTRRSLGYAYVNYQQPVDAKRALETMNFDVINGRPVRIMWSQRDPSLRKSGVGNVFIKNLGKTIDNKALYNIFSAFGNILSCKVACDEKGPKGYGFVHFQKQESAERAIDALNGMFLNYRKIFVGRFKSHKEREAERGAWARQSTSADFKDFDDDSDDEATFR
The 7-mer Z-score of `UUCCUUG` is reported as -0.394.
With `GCACAAA` the 7-mer Z-score was 1.18.
For `AGCGAGC`, the 7-mer Z-score was 0.0334.
`GACGAAA` gave a 7-mer Z-score of 0.793.
The 7-mer Z-score of `UUUCGCC` is reported as -0.421.
`AGGUCUA` gave a 7-mer Z-score of -0.0844.
The 7-mer Z-score of `UCGGCGA` is reported as -0.103.
`CGUAGCA` gave a 7-mer Z-score of -0.0863.
The 7-mer Z-score of `ACUGCUC` is reported as -0.161.
`CUAUUAA` gave a 7-mer Z-score of 0.209.
`AUUGACU` has a 7-mer Z-score of -0.121.
`GCUCUAA` has a 7-mer Z-score of 0.153.
`UGAUAUA` gave a 7-mer Z-score of -0.0681.
For `UAAGUCA`, the 7-mer Z-score was -0.112.
For `GCAUAGA`, the 7-mer Z-score was -0.00108.
With `GUAGAAG` the 7-mer Z-score was 0.0189.
`GCUAGCA` gave a 7-mer Z-score of -0.0935.
For `CUGAUGA`, the 7-mer Z-score was -0.222.
`GGCCGCA` gave a 7-mer Z-score of 0.0714.
For `CCGACUG`, the 7-mer Z-score was -0.0663.
`GGGCGUA` has a 7-mer Z-score of 0.22.
`GAGCUCA` has a 7-mer Z-score of -0.389.
`UGGGACG` gave a 7-mer Z-score of 0.332.
`UCCGGAA` has a 7-mer Z-score of -0.0264.
For `CUUGACG`, the 7-mer Z-score was -0.255.

Series 6
Target: RNA binding protein fox-1 homolog 2, RRM domain, GST-SBP tag (RBFOX2, Homo sapiens, UniProt O43251-10, residues 100-194)
Method: RNA Bind-n-Seq
Molecule type: RNA
Sample: in vitro
Tested at: 365 nM
Setting: natural RNA segment, single round, ends assumed
Baseline: no-protein control
Reading: higher = stronger binding
Constant ends, left off below: GGGAGUUCUACAGUCCGACGAUC … UGGAAUUCUCGGGUGCCAA
Residues (chain): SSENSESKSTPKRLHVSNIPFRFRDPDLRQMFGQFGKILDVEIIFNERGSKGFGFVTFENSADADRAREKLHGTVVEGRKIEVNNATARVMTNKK
Under “RBNS enrichment (R)”, `GGGGCUAUGUGGCUACGGCUACACAAAAGCCUGUGCAGGUUAGAAGACGACUGUGGUGUGCAGUGGUGCUCUGGGAGUGGAGACUUCCUCUGUUCUCAGAGACUCACCCC` is recorded as 0.236.
Under “RBNS enrichment (R)”, `AGUGCGUGCUUGGCAGUUCCAUGUUACCUACCACCCAUUAGUUAGCAAGCGAACUUAGUGCCACAGGUGUUCAUUUACUCGGGAAAUGGUUUUGCUUUUUGUAUUGUCUA` is recorded as 0.71.
`GAGCGUUCGCGCUCUGGGUCACUGGAUUGUUUCGUGUUUAUGUGUGAUUGUACCAAGGAACUUAGCCUCAUGUAGCAUGUACAGGGUUGUAAUGGUGACCCAGCAGCGAG`: “RBNS enrichment (R)” 8.82.
`GCCCUGCAGGGCCCUGGGCUCCUGUCUGCUGAUGCUGCCCGCCUCACCUGCAGAGGUGCCCAUCAGGGCGAGUUCUCAGGUGUCUGUUGCUGUGCCAUGGGGGCCUUCUU` — result for “RBNS enrichment (R)”: 0.374.
`GCAAAGGUGUAGAACACAUUUUUUCAAAGACUAAAUCUAAAACCCAGAGUAAACAUCCGAUGCUCAGAGUUAGCAUAAUUUGGAGCUAUUCAGGAAUUGCAGAGAAAUGC`: “RBNS enrichment (R)” 0.603.
For `GGGUUGGGGGGGCAGGUGCCAGGCCUCACUGCUGUGAAUCUGCCACGCCUGGGGGUCCUAGAGGCUGCCCCACCCCAGUGAUUGGGUAGCAGCUCACAUCCCACCCAGCU`, “RBNS enrichment (R)” read 0.373.
Under “RBNS enrichment (R)”, `GUGGUAAAAAAGCCUCUGAAAGCUGUAACACCCUCAGUAAUAACAAAAGGGAUUUUUAUUUCACAGCUAAAGGGAAAAUAGGUGGAGAAGUUAAAAAAUAAUGUCUGAUC` is recorded as 0.768.
Under “RBNS enrichment (R)”, `UACAAGGUUGUGAGGCCCUCUCCCCCCCAACUUUGUUUAAGGCAUUUUGGUUUUUUAAAAUCUGUACAGUAAAAGCAACUUUUUCUGUCAAAUAAAAAUGAGAAAUGCAG` is recorded as 0.335.

Excerpt of the above (series 2):
For `R30E`, the binding fitness was -1.52 natural log.
`N42A` has a binding fitness of -1.36 natural log.
`E54V` gave a binding fitness of -1.4 natural log.
With `A49P` the binding fitness was -1.51 natural log.
For `S47N`, the binding fitness was -1.42 natural log.
With `L45D` the binding fitness was -1.47 natural log.
For `L31D`, the binding fitness was -1.53 natural log.
`T48D` has a binding fitness of -1.56 natural log.
With `T37D` the binding fitness was -1.52 natural log.
`I28P` gave a binding fitness of -1.5 natural log.
`T37E` gave a binding fitness of -1.36 natural log.
`I28Q` has a binding fitness of -1.5 natural log.
The binding fitness of `N42Q` is reported as -1.39 natural log.
`A46V` has a binding fitness of -1.46 natural log.
The binding fitness of `L52P` is reported as -1.48 natural log.
The binding fitness of `N42L` is reported as -1.35 natural log.
With `E54K` the binding fitness was -1.44 natural log.
`M51Q` has a binding fitness of -1.38 natural log.
